Measured values collected from several papers.
Cell line: HEK293
Effect on: cell growth or viability

SMILES	technique	time	CC50
COc1ccc2c(c1)C1CC(C)(N2)c2c(C)nc3ccc(OC)cc3c21 (stereo not shown)	MTT	24 h	> 400000 nM
O=C(/C=C/c1ccc(O)c(O)c1)NCCCCCCCCCC[P+](c1ccccc1)(c1ccccc1)c1ccccc1	resazurin	20 h	10.7 µg/mL
NCC1OC(OC2C(N)CC(N)C(OC3OC(CO)C(O)C(N)C3O)C2OCCCCn2cc(CNc3nc(NCc4cn(CCCCOC5C(OC6OC(CN)C(O)CC6N)C(N)CC(N)C5OC5OC(CO)C(O)C(N)C5O)nn4)nc(NCc4cn(CCCCOC5C(OC6OC(CN)C(O)CC6N)C(N)CC(N)C5OC5OC(CO)C(O)C(N)C5O)nn4)n3)nn2)C(N)CC1O (stereo not shown)	resazurin	48 h	190000 nM
O=C(Cc1ccc(O)c(O)c1)NCCCCCCCCCC[P+](c1ccccc1)(c1ccccc1)c1ccccc1	resazurin	20 h	31.2 µg/mL
CNCCCOc1cc(F)c(-c2c(Cl)nc3ncnn3c2NCC(F)(F)F)c(F)c1	ATP luminescence	48 h	23.8 nM
NCC1OC(OC2C(N)CC(N)C(OC3OC(CO)C(O)C(N)C3O)C2OCCCCCCCCCCCCn2cc(CNc3nc(NCc4cn(CCCCCCCCCCCCOC5C(OC6OC(CN)C(O)CC6N)C(N)CC(N)C5OC5OC(CO)C(O)C(N)C5O)nn4)nc(NCc4cn(CCCCCCCCCCCCOC5C(OC6OC(CN)C(O)CC6N)C(N)CC(N)C5OC5OC(CO)C(O)C(N)C5O)nn4)n3)nn2)C(N)CC1O (stereo not shown)	resazurin	48 h	9500 nM
COc1ccc2nc3cc(Cl)ccc3c(NCCN3CCN(C)CC3)c2c1	MTT	72 h	678 nM
CNCCCOc1cc(F)c(-c2c(Cl)nc3ncnn3c2N[C@@H](C)C(F)(F)F)c(F)c1	ATP luminescence	48 h	11.5 nM
O=C(/C=C/c1ccc(Cl)c(Cl)c1)N1CCC(CCN2CCC(c3c[nH]c4cnccc34)CC2)CC1	MTT	72 h	1940 nM
CC(C)[C@H](Nc1c(-c2c(F)cc(OCCCN(C)C)cc2F)c(Cl)nc2ncnn12)C(F)(F)F	ATP luminescence	48 h	19.2 nM
